Measurements of several laboratories.
Lines come from different studies, so protocols differ.
Technique: steady-state kinetics
B1: CMBL (Homo sapiens, UniProt Q96DG6); chain MANEAYPCPCDIGHRLEYGGLGREVQVEHIKAYVTKSPVDAGKAVIVIQDIFGWQLPNTRYIADMISGNGYTTIVPDFFVGQEPWDPSGDWSIFPEWLKTRNAQKIDREISAILKYLKQQCHAQKIGIVGFCWGGTAVHHLMMKYSEFRAGVSVYGIVKDSEDIYNLKNPTLFIFAENDVVIPLKDVSLLTQKLKEHCKVEYQIKTFSGQTHGFVHRKREDCSPADKPYIDEARRNLIEWLNKYM
B2: protein (Cecembia lonarensis, UniProt K1KV82); chain QENKEKDRTPSSKHLTDNILQPKRSSDFMAFKYEYSTVDLYREFSESIMDKARSEVEILESVNRQGRYKPNVESLKLHEVPEWFEDAKLGIFLDWGPWSVPGYAPLKGAEASTGGSYPDWYEFLMDNLYKEYHDEVWGADFRRDDFLPLLTGENFNSEEYMLLAVNSGAKYFVPFTKHHAGWTMWESEFTKRNAVEMGPGRDIYKELIEAGKKYDMKMGFYFSVSEWEYPVIVDQNLSQWDPVKNLAIFQDALGQIPRATPLASYFPALHDRMISGKIPVKDYFADYMIPSFKEAVDKYDPDLVWYDGGWGSPVSISRTMETSAYFYNQAEGKKDVVINNRAGSSLSEDDLIKVRDLMDSGKRDEAMKIYLSGQQLGDYGTPEFTIGDVDIQSKWEVCRSISPAFGYNWQDDEASSLSGEELIKLFVDIVANNGNLLLVISPDGSGKLPDIQKDRLLELGDWMKVNAESIHNTRPWKVQKENDKFFTKSKDGKSLFVHCTNWPGENLIINTPIEEGIKGIKLLGSDINLQFTKASNGNLEIPIPKDFQNNPSLISKYVWTFKIDLN
B3: protein (Adiantum capillus-veneris, UniProt A0A4Y6I289); chain MTDAVENKQVEFGALEVEGIKFAPSVAALGSTKQLVLGGAGFRGLEISGNLVKFTAIGIYVDEAIIPHLSPKLHGKSIEELCNNELLFEEVLAAPFEKLVRVVFLLPLTGPQYSEKVVERMGLLPNPGIKEESTKQFLEIFKPENFPPRTSLICSFTEEALKVAFMKTDDFPEDADAVIEDKWLARAFLASIIGKDGVSPLAKLSFAERMSRCL
B4: protein E205A (Zea mays, UniProt A0A2H4PMI3); chain APFACVSRWLHTPSFATVSPQEVSGSSPAEVQNFVQGSWTASANWNWIVDPLNGDKFIKVAEVQGTEIKSFMESLSKCPKHGLHNPLKAPERYLMYGDISAKAAHMLGQPTVLDFFAKLIQRVSPKSYQQALAEVQVSQKFLENFCGDQVRFLARSFAVPGNHLGQRSNGYRWPYGPVAIITPFNFPLAIPLLQLMGALYMGNKPVLKVDSKVSIVMEQMIRLLHDCGLPAEDMDFINSDGAVMNKLLLEANPKMTLFTGSSRVAEKLAADLKGRVKLEDAGFDWKILGPDVQEVDYVAWVCDQDAYACSGQKCSAQSVLFMHKNWSSSGLLEKMKKLSERRKLEDLTIGPVLTVTTEAMIEHMNNLLKIRGSKVLFGGEPLANHSIPKIYGAMKPTAVFVPLEEILKSGNFELVTKEIFGPFQVVTEYSEDQLELVLEACERMNAHLTAAIVSNDPLFLQDVLGRSVNGTTYAGIRARTTGAPQNHWFGPAGDPRGAGIGTPEAIKLVWSCHREIIYDVGPVPESWALPSAT
B5: protein (Candidatus Protochlamydia amoebophila, UniProt A0A2P9HA01); chain KNQQNSVSSTLLILKKRSLILFQFFLIIIVYHTLKDLKDTIVITASDAGAEIIPFIKIWGMLPLAICASYFFAKFYNKFGREKTFYIFSSFLLVNYLFFAFVLYPFRKFFYLENVADYLHMILPVGAKGFVAMVSYWHYTLFYLTAELWSMLILSILFWGYVSDTTSLVEAKKFYPLCMFVGNMAGIISGQLSHFLCQHLSDFMSWERTLQWMIGIVCVCGLLIMIINRRLALTTDFSAIKQKVKKQIAPSSFKDNVMDVLRTGPLLCIAVLVVGFGLTTNLIEVIWKENIRQLHPTPQAYNAYINQLTSLIGTGAVCIALLSSWIFRKFTWTQIALTTPLCLLITSSAFFSSLLMPKELLAEIASFFQFSPTQLIVTLGSICYVFSMSAKYTIFDTSKEIAFLSIETEKRTYAKSVIDSIGSRLGKSGASCFYQFLLIAFGIASEHILLIGVVSIIMIGISIFATKKLGGQLSGKNENHRFIEASHG
B6: enzyme (Plasmodium falciparum, UniProt Q8ILK1); chain MTNKFNKINKNNYETREAVYYDKGNRINSNKEKEMKEFKEEELKEFFNKWNPFYKEKLNSEIEKKNFINFDGEKKMENGNNEYFNSYNYIHIHEDMIKDEVRTRTYYDSIRKNEHLIKDKIVLDVGCGTGILSFFAATHGAKHVYSIEKSDIIYTAIKIRDENNLTDKVTFLKGLAEEIELPVDKVDIIISEWMGYCLLYENMLDTVLYCRDKWLKEGGLIFPDKAHMYIAGIEDSLYREEKFDFWKNCYDLNFSSVLPIIKEEVVIDYVDRNFVVTDTCCILTLDLNTCTPDQLSFVSPFQLKMIRKDYLHALVIWFDISFSACHTEVNFTTGPYGAHTHWKQIVLYTDHIITAERNETLKGIFALKRNQKNKRHLDMKLHYIFDGVHTKAKSTQLFNIS
B7: protein (Amanita muscaria, UniProt A0A650FNW1); chain MSTKPETDLQTVLDSEIKEWHFHIYFHQNNAAEHQAALELRDAVLRLRQDGAFVAVPLFRVNMDPMGPHPVGSYEIWVPSETFASVFSYLCMNRGRLSILVHPLTREELRDHEIRNAWIGPSFPLNLANLPIKSDEIPLQYPSLKLGYSSTAHKMSLEERRKLGDDIEAVLRGEKEAARAPHRDA
B8: TcA (Trypanosoma cruzi, UniProt Q4DRC4); chain MFIRLFAREEEGEKEGKICHMPREYEFAEKILFTEEEIRTRIKEVAKRIADDYKGKGLRPYVNPLVLISVLKGSFMFTADLCRALCDFNVPVRMEFICVSSYGEGLTSSGQVRMLLDTRHSIEGHHVLIVEDIVDTALTLNYLYHMYFTRRPASLKTVVLLDKREGRRVPFSADYVVANIPNAFVIGYGLDYDDTYRELRDIVVLRPEVYAEREAARQKKQRAIGSADTDRDAKREFHSKY
UniProt Q9SKC5, sequence (whole entry, looked up): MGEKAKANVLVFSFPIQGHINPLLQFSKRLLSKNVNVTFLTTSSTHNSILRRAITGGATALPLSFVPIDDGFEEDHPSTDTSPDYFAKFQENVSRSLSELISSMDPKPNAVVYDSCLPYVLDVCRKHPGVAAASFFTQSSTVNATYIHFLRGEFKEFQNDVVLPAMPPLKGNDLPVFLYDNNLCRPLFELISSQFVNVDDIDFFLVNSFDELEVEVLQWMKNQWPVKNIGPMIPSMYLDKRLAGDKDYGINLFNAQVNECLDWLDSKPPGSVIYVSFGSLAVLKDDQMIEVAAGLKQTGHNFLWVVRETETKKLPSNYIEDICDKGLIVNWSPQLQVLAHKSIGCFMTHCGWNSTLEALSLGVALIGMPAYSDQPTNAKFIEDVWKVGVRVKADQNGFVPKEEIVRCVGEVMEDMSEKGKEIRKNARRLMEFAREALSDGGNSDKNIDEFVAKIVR
UniProt P36022, sequence (whole entry, looked up): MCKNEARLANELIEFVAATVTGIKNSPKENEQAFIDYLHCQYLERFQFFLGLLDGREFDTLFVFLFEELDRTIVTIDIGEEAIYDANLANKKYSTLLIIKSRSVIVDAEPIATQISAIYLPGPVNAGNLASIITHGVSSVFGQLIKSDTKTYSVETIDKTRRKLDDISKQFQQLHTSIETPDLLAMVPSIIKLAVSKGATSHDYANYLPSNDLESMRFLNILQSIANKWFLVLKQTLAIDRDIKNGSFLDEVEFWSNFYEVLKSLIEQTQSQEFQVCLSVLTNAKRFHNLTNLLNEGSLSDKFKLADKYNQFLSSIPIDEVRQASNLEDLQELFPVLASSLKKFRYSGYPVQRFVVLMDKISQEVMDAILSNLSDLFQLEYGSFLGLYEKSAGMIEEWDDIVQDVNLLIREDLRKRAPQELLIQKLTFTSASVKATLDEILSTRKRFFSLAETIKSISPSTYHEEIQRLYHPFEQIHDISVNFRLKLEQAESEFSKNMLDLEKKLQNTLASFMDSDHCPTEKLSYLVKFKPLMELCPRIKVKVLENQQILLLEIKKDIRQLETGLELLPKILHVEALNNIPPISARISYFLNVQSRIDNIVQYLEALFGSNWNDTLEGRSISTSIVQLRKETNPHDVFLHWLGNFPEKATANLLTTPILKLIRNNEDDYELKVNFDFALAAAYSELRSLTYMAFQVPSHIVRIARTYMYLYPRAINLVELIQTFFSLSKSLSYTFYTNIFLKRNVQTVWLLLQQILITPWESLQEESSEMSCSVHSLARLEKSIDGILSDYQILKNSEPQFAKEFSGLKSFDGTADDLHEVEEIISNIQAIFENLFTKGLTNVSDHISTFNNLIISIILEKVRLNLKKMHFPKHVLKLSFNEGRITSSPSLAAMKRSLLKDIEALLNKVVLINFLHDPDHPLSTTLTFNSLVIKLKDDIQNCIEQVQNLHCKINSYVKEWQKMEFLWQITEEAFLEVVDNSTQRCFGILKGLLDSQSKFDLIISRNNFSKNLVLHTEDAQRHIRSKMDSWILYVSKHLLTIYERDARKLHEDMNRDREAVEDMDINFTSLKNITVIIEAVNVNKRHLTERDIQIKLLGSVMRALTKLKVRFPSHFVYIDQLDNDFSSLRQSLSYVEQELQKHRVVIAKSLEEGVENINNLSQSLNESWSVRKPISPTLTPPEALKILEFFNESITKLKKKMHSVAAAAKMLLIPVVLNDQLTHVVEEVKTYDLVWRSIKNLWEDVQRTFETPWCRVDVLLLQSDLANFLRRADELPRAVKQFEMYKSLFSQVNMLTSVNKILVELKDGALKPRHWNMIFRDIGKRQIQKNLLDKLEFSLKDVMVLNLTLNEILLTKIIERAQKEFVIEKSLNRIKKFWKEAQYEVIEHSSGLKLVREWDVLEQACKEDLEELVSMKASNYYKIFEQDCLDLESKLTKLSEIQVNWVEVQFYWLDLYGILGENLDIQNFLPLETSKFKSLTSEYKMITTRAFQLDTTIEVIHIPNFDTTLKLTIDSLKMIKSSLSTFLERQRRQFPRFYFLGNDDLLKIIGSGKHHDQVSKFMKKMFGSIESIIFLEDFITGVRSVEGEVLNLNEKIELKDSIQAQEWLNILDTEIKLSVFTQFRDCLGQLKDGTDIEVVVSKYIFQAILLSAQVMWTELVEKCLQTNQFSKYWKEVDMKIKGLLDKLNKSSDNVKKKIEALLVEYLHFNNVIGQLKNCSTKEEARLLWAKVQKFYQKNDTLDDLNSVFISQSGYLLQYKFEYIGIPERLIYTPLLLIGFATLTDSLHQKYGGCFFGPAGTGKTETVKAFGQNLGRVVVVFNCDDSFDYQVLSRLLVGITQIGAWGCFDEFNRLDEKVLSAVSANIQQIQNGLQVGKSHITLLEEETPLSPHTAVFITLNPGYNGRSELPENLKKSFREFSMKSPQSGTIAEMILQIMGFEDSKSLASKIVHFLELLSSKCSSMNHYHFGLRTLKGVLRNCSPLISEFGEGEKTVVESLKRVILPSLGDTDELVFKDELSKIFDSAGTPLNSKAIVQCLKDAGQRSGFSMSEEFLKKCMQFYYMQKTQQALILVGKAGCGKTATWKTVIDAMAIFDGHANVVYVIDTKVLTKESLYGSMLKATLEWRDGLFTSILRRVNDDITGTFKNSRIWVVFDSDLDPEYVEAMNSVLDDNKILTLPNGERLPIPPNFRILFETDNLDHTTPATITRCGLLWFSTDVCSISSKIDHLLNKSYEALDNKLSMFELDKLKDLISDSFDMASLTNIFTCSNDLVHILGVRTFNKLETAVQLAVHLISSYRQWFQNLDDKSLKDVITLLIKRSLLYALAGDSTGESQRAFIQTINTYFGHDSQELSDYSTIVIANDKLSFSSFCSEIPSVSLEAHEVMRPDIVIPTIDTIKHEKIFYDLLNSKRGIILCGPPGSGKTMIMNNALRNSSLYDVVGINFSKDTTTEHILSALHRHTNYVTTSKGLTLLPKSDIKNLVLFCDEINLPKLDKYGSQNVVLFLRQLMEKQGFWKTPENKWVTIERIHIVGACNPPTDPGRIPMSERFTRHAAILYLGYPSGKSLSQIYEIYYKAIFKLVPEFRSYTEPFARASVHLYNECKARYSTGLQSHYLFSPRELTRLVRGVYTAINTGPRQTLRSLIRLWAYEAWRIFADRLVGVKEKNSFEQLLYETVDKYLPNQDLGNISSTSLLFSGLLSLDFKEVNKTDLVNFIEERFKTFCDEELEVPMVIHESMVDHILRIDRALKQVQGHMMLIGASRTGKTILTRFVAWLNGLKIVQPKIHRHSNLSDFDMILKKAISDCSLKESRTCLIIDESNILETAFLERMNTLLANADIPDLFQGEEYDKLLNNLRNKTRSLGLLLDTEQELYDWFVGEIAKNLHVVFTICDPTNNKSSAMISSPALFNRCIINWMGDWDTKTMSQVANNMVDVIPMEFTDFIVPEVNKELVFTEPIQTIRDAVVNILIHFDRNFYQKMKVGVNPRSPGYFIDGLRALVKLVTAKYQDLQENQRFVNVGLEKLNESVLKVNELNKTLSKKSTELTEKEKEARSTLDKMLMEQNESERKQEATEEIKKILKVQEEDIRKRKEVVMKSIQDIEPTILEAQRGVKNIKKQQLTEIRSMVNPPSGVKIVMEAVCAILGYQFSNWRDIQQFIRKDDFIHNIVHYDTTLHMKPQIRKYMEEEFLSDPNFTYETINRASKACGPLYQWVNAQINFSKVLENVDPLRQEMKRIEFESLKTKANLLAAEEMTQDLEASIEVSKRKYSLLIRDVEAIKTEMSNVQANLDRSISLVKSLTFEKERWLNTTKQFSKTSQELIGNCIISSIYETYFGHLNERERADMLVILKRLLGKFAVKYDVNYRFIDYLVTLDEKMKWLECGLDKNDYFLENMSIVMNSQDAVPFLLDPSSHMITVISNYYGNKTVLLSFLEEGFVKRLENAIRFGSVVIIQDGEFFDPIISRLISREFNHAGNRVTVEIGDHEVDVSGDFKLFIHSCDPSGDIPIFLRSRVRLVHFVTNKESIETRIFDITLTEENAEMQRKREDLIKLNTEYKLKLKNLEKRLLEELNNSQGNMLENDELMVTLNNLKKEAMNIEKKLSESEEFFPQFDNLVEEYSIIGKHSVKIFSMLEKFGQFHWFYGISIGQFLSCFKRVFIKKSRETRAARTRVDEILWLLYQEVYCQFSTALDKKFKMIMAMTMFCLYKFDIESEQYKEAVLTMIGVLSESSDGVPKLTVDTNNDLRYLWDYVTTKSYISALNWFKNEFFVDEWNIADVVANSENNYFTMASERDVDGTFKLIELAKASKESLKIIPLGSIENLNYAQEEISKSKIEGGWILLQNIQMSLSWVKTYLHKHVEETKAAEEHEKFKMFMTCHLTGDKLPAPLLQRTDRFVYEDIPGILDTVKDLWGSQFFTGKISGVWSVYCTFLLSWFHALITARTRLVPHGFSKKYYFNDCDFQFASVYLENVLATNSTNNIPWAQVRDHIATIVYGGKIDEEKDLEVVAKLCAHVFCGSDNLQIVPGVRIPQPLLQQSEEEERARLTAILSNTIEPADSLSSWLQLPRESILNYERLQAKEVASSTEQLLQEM
UniProt P27306, sequence (whole entry, looked up): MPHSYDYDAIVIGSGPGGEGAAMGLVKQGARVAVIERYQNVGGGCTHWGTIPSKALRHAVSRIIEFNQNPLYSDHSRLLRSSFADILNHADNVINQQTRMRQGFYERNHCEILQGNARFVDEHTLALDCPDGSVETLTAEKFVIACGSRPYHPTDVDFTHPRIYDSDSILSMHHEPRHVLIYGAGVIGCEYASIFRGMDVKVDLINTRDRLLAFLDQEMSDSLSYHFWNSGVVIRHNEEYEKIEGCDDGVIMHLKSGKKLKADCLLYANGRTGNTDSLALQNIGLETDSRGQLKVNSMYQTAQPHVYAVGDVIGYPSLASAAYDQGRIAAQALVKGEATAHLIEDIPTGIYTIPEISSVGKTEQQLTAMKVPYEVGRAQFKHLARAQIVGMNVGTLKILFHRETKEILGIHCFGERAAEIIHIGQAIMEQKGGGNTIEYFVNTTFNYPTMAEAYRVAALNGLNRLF

Substance | substrate | matrix | pH | temperature | notes | added | Km [µM]
sthA (Escherichia coli, UniProt P27306) | NC(=O)c1ccc[n+]([C@@H]2O[C@H](COP(=O)(O)OP(=O)(O)OC[C@H]3O[C@@H](n4cnc5c(N)ncnc54)[C@H](O)[C@@H]3O)[C@@H](O)[C@H]2O)c1 | – | pH 7.5 | 37 °C | NaCl 150 mM | thio-NADH 200 µM | 68
DYN1 (Saccharomyces cerevisiae, UniProt P36022) | Nc1ncnc2c1ncn2[C@@H]1O[C@H](CO[P@](=O)(O)O[P@](=O)(O)O[P@@](=O)(O)S)[C@@H](O)[C@H]1O | – | pH 7.2 | – | – | – | 500
B1 (CMBL) | Cc1oc(=O)oc1COC(=O)C1=C([C@H]2CCCO2)S[C@@H]2[C@@H]([C@@H](C)O)C(=O)N12 | lysate | pH 7.4 | 37 °C | not purified | – | 283
UGT74D1 (Arabidopsis thaliana, UniProt Q9SKC5) | O=C(O)Cc1c[nH]c2ccccc12 | – | pH 7.5 | 30 °C | – | – | 88.3
B2 (protein) | C[C@@H]1O[C@@H](Oc2ccc([N+](=O)[O-])cc2)[C@@H](O)[C@H](O)[C@H]1O | – | pH 5.5 | 35 °C | – | – | 417
B3 (protein) | O=C(/C=C/c1ccc(O)cc1)c1c(O)cc(O)cc1O | – | – | – | – | – | 98.2
B4 (protein E205A) | O=CCCCC(=O)O | – | pH 7.5 | 30 °C | substrate inhibition | NAD+ 3.0 mM | 32
B5 (protein) | Nc1ncnc2c1ncn2[C@@H]1O[C@H](COP(=O)(O)OP(=O)(O)O)[C@@H](O)[C@H]1O | – | pH 7 | 30 °C | transporter, labelled substrate, apparent, not purified | – | 273
B6 (enzyme) | C[S+](CC[C@H](N)C(=O)[O-])C[C@H]1O[C@@H](n2cnc3c(N)ncnc32)[C@H](O)[C@@H]1O | – | – | 37 °C | – | – | 1.44
B7 (protein) | N[C@@H](Cc1ccc(O)c(O)c1)C(=O)O | – | pH 8.5 | 25 °C | ascorbic acid 10 mM | O2 | 4200
AphC (Rhodococcus jostii, UniProt Q0S9X1) | CCc1ccc(O)c(O)c1 | – | pH 8 | 25 °C | apparent | O2 | 1.19
B8 (TcA) | Nc1nc2nc[nH]c2c(=O)[nH]1 | – | pH 8.3 | 37 °C | apparent | PRPP 1 mM, MgCl2 12 mM | 19

Some of these lines once more:
Substance | substrate | matrix | pH | temperature | notes | added | Km [µM]
B3 (protein) | O=C(/C=C/c1ccc(O)cc1)c1c(O)cc(O)cc1O | – | – | – | – | – | 98.2
